Results from different studies.
Parts stem from different laboratories: compare values within a part only.

Block 1 — technique: protein-binding microarray; molecule type: double-stranded DNA, one strand shown; medium: in vitro; tested at: 2540 nM top; setting: 60-bp whole probe; with: salmon DNA 0.4 mg/ml; reference: random background probes; direction: higher = stronger binding; shared flanks, not repeated: GCCTAGCAC … GTCTTGATTCGCTTGACGCTGCTG
Target: Interferon regulatory factor 3, full length, phosphomimetic (IRF3, Homo sapiens, UniProt Q14653, residues 1-427, S386D/S396D/S398D/S402D/T404D/S405D)
Target sequence (chain): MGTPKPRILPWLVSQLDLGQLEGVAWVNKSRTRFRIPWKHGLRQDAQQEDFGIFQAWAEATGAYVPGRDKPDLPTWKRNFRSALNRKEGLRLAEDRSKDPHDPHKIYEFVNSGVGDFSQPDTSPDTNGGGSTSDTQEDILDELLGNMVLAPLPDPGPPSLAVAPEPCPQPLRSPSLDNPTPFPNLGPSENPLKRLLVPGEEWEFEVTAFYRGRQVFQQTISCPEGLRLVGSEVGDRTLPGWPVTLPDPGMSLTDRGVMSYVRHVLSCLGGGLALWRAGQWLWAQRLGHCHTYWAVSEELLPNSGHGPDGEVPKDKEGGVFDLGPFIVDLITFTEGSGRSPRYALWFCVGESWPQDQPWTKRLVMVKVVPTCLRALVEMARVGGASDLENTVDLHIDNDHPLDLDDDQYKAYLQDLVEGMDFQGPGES
Strand | fitted relative affinity [z-score]
TTAGGTATCCGGACTGGGTTAGTGCTA | 2.1
TTTTCATTTTCTTTAACTCAGTGCTAG | 5
TTAGGTTTCGACTTTCGGTAAGTGCTA | 3.78
TTAGATTTCAGTTTGGATTAGTGCTAG | 2.01
TTAGAGTTCAGTATCGATTAGTGCTAG | 1.08
GACGGTATCGACTTTCAGGACGTGCTA | 1.24
TCAGGTTTCACTTTCCAACTGTGCTAG | 8.1
GACAGTCTCGGTATCGGGACGTGCTAG | 2.15
GACGGACCGGGGACTGGGGACGTGCTA | -0.989
GACGGACTGGACTTTCGGGGCGTGCTA | -0.303
TCAACTCTAATATTGAGACTGTGCTAG | 0.142
GACCATTTCGGGTTTCGAGACGTGCTA | 3.02
GACGGTTTCGCCACTGGGGACGTGCTA | 2.86
GACGGTATCGACGCTGGGGACGTGCTA | -0.0618
TAGATATTATATCTGTGTTAGTGCTAG | 0.0498
TCAGGTATCGGTCTCGGTTAGTGCTAG | 4.39
TTAGATTCGAGTTTCGATTAGTGCTAG | 3.27
GACGGTCTCCTTCTTCTGACGTGCTAG | 3.88
TTAGGTATCGGAATGGGTTAGTGCTAG | 3.1
GGGTCTCTGGGTCGGGCAGGGTGCTAG | -0.795
TCATACTTCCCACTGGTACTGTGCTAG | 0.507
TTAAATTTCGGGTATCGATTAGTGCTA | 1.64
GACGATTTCTGTTCCGAGACGTGCTAG | 3.52
TTCGGTTTCCTTCTCCTTTAGTGCTAG | 10.3
ACGTTTTTCATTTTTTTTTTGTGCTAG | 2.25

Block 2 — technique: RNAcompete; molecule type: RNA; medium: in vitro; tested at: 20 nM; setting: 7-mer, probes averaged, single round; reference: mean of 7-mers; direction: higher = stronger binding
Target: PABPC1L2, full length, GST fusion (mouse, UniProt A0ABA7IW68)
Residues (chain): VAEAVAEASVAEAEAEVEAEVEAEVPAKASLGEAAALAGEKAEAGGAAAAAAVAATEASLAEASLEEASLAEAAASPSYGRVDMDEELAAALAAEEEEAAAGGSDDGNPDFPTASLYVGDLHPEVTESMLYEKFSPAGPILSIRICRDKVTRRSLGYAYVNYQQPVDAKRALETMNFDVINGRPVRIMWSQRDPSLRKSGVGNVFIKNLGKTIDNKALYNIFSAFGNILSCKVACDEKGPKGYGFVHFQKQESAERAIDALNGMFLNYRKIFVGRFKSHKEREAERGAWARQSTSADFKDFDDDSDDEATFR
Strand | 7-mer Z-score
GCACGUU | -0.182
UUGAAAG | -0.0699
AGUCAUA | -0.146
GAAUGGG | 0.274
CUUCAGU | -0.296
GCAUUUG | -0.278
ACAAAUG | 0.715
AAUCUGC | -0.0192
UGGUAAG | -0.153
UUUGAAA | 0.095
CAAUACG | -0.148
CCCUGCA | -0.318
UCACGGC | -0.162
AAGAACC | 0.289
ACUCAUA | -0.273
GGCGGAC | 0.253

Block 3 — technique: protein binding microarray; molecule type: double-stranded DNA, one strand shown; medium: in vitro; tested at: not given; reference: not given; direction: higher = stronger binding
Target: Histone acetyltransferase KAT6A, winged helix 2, GST fusion (KAT6A, Homo sapiens, UniProt Q92794, residues 85-181)
Setting: 8-mer, flanks averaged, mean of 2 arrays, mostly near background
Residues (chain): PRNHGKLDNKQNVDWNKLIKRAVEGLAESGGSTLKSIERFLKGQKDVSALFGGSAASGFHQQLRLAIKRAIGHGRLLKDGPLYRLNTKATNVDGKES
Strand | E-score
ACGCCTAA | -0.0479
CATGCAAC | -0.0225
CGAGAAGC | -0.0112
GCAACTAA | 0.196
GGCCCTCA | -0.0739
ACCCCACA | -0.0169
AGGAAGAA | -0.0369
CAACGCCA | -0.0858
CAAACAAA | 0.0729
GCTTTTCA | 0.00634
AGGAGCAC | 0.0471
CAAATCAG | 0.0248
GAGGGGGA | 0.0229
GAATCGCA | -0.055
AACAGATA | -0.103
GATGACTA | -0.15
AGGTCGAC | 0.103
CCGCGCTC | 0.218
ACGGACAC | -0.0387
CGCCCTAA | -0.0229
CTCATGTC | -0.0266
CGTTCATA | -0.154
GCTGTACA | -0.0672
AGCTTAGG | -0.0835
CAGTGGAG | 0.0182

Block 4 — technique: RNA Bind-n-Seq; molecule type: RNA; medium: in vitro; tested at: 365 nM; reference: no-protein control; direction: higher = stronger binding
Target: RNA binding protein fox-1 homolog 2, RRM domain, GST-SBP tag (RBFOX2, Homo sapiens, UniProt O43251-10, residues 100-194)
Setting: natural RNA segment, single round, ends assumed
Shared flanks, not repeated: GGGAGUUCUACAGUCCGACGAUC … UGGAAUUCUCGGGUGCCAA
Target sequence (chain): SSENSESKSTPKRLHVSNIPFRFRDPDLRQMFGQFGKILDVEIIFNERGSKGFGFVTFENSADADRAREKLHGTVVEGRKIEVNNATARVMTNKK
Strand | RBNS enrichment (R)
UGGGAGGUGGUCUCUCAAGCUCUGGGUGCUUUUAGUACUUUUUUUUUUUUUUAACUGUAGGGAAGCAGCCCUGACCUUACCUCUCCACUCCUGUCCCGGGAGCUCUCAAU | 0.41
CAGGCUAUGGGAUCCUUGGCCACCUUGCUUCAUGAUUUGAUACAUUUGUUGUAUUCAAAAACUUGAACUGUAGGAUGCCAUUAAGAGUCUGUUUAUAUUUUUGGAAUAUU | 0.491
AAAAGCAAUUACUACAAAUGGAUGACACAUUUAAUGAACACAAUUUUAUUUUUUUUCUGUAACUGUGCUUGUUGAAUGUCAAUCAUAUUUAAAGGGAAUGACUUUGAAGU | 0.668
CUAUUAAAAUUGCCAUUUUAUUAAACAUUUUCAUGCACAGUAGAUUCAAGUUGUGUCUGAAAAUAUCUCUUGUGCUUUUUUGAUUUUGCUGACUUUAAAAGGAUUAAUCU | 0.634
AACCAGCUUUUUAAAAAUAUGUAGCGCUUGUCAUGAGAGGUACUGGGGAAAAGAAUGUGCAGUAGAGUGCAAAUACAUUACAAUUACUGGAAAAUUGGUGGAAAAUGCUU | 4.44
CAGACCUUGACCAAAGAUGCUGAAAUACAGUGUUGGGAUCCUUGUACUCUGGAACCAUGCCAUCACUGAUGUCAUGCUCAUGCUACCUAGCAUGCAGGAGGAUGCCAUCU | 0.862
GUCUGGACAGUGGUUCUGGAAUGAAUUCUAUCUAGUAAAUUAGUAAAUGUGCUGUUUUGUAUAAAGCAUGAUAAUUACUUUUUAACAGAAGUUCAUUUUUAAAGAUUACU | 0.469
AUAACCGAGUUUGCUAAAUUGAGAGGGGCUAUUGGGCCCUAGAGGACACUAGGAGACUGGUUAGGACAAAAAGACCUUCUCCCUAGCCCUUCUACCCCACCUGACCUCUG | 0.648
CCAGACACAUGCUGACAGACACGAGGGAAGCAAGACAGAUUCUUUCUCCACUGUUAAACUCUGGGGAGUGGUAUCAGCUUUUGAAACCCUGCUCUAGACUCUUACAAAAU | 0.25
GAGGGAGUGUUGGUUUUUUGUUUUUGUUUUUUUAACAUGUAUGAAACUGACAUCUUCUCAAAUCUUGUUCCACCCCCCUCUGGAAGCCCCCAUCACCCACCCCUGCUAUG | 0.701
AGCCUCUGUAACUCCCUUUUGUCCAUAGGUGUUGCGUGCCUCUCAUCUGUGGGGAAGUAUUAUUUAAUAAAAUUUAUGUUACAGGAUAACUUUAUUUUAAUGGGCAUGGG | 4.25
CCUAAAUAAAAAAUUUGCACAGGUAAAUUCUCUCACUUGUGAAUGGGAGAAGCUGCCCCAGGAAUCUGUGAGGAUGGUAUUCCCUGGAGUCUGGCUUUGAAAGAUUUCAU | 0.533

Excerpt of the above (block 1):
Strand | fitted relative affinity [z-score]
GACAGTCTCGGTATCGGGACGTGCTAG | 2.15
GACGGACTGGACTTTCGGGGCGTGCTA | -0.303
TTAGATTCGAGTTTCGATTAGTGCTAG | 3.27
TTAGGTATCCGGACTGGGTTAGTGCTA | 2.1
TTAGGTTTCGACTTTCGGTAAGTGCTA | 3.78
TCATACTTCCCACTGGTACTGTGCTAG | 0.507
